Assay results from different studies.
Compare with care: the assays were run in different laboratories.
Target: Serine/threonine-protein kinase PAK 1 (PAK1, Homo sapiens, UniProt Q13153)

| SMILES | observed | action | method | tested at | baseline | quantity | value |
| --- | --- | --- | --- | --- | --- | --- | --- |
| NC(=O)[C@@H](O)C[C@H]1CCc2sc3ncnc(O[C@H]4CC[C@H](N5CCOCC5)CC4)c3c21 | enzyme activity | inhibitor |  | 10 µM |  | inhibition | 8% |
| C=C1CCCCCCCCCC(CO)C1=O (centres unmarked) | cell-free assay |  | competition with immobilised ligand | 10 µM |  | remaining binding | 100% |
| CN1CCN(Cc2ccc(-c3ccc(CO[C@H]4CCC[C@@H]4NC(=O)c4cc(-c5cnn(C)c5)cnc4N)cc3)cc2)CC1 | enzyme activity | inhibitor |  | 0.1 µM |  | inhibition | 9% |
| C=CC(=O)N1CCCC(n2c(=O)c3ncccc3n(Cc3ccc(Oc4ccccc4)cc3)c2=O)C1 (centres unmarked) | cell-free assay |  | competition with immobilised ligand | 1 µM |  | remaining binding | 100% |
| Cc1cccc(O[C@H]2CCC[C@@H](C(C)CNCc3ccncc3)C2)c1 (relative stereo) | enzyme activity | inhibitor |  | 10 µM |  | inhibition | -3% |
| COc1ccc(C(=O)/C=C/c2ccccc2-c2c[nH]c3ccc(C#N)cc23)c(O)c1 | enzyme activity | inhibitor |  | 20 µM |  | inhibition | -7% |
| C=CC(=O)Nc1cccc(-c2cnc3[nH]cc(C(=O)NC(C)(C)C)c3n2)c1 | kinase activity |  |  | 0.1 µM |  | inhibition | 5% |
| C=CC(=O)N1CCc2ccc(-n3c(=O)ccc4cnc5ccc(-c6cnn(C)c6)cc5c43)cc21 |  |  | KINOMEscan | 1 µM | DMSO control | remaining binding | 100% |
| CN1CCN(Cc2ccc(NC(=O)c3cccc(C#Cc4cnc(N)c5ncccc45)c3)cc2C(F)(F)F)CC1 | cell-free assay |  | competition with immobilised ligand | 50 nM |  | remaining binding | 84% |
| COc1cc(Nc2nccc(-c3cnn4nc(OC)ccc34)n2)cc(C(F)(F)F)c1 | binding |  | competition with immobilised ligand | 1 µM |  | remaining binding | 99% |
| COc1c(Cl)cccc1Nc1c(-c2ccncc2C#C[C@@]2(C)CCCN2C(=O)/C=C/CN(C)C)[nH]c2c1C(=O)NCC2 | cell-free assay |  | competition with immobilised ligand | 3 µM |  | remaining binding | 92% |
| CNC1C[S+]2CC[S+]3CC[S+](C1)[Ru-4]321([N]=C=S)[n]2c3ccc(OC)cc3c3c4c(c5cc(F)c[n+]1c5c32)C(=O)NC4=O (centres unmarked) |  |  | KinomeScan | 0.1 µM | untreated | remaining binding | 100% |
| O=C(Cc1ccc(OCc2ccccc2)cc1)NC1(C(=O)O)CCN(C(=O)c2ccc(-c3cccc(Cl)c3)cc2)CC1 | enzyme activity | inhibitor |  | 10 µM |  | activity vs control | 110% |
| CC(C)=CC1OC(C)(C)C2C=C3C(=O)C(Cl)=CC(O)C3C3C(O)C4OC4C(=O)C132 (centres unmarked) | cell-free assay |  | competition with immobilised ligand | 10 µM |  | remaining binding | 96% |
| Nc1ncc(-c2cc(-c3cnn(CC(F)(F)F)c3)ncc2F)nc1C(=O)NC1CNCC(F)C1 (centres unmarked) | enzyme activity |  |  | 1 µM | DMSO control | remaining activity | 94.4% |
| CNS(=O)(=O)Nc1nccc(Cc2c(C)c3ccc(Oc4ncccc4F)cc3oc2=O)c1F | cell-free assay |  | competition with immobilised ligand | 10 µM |  | remaining binding | 95% |
| COc1ccc(NC(=O)Nc2ccc3c(c2)C(=O)N(C(C)CO)CC(C)C(CN(C)Cc2ccc4c(c2)OCO4)O3)cc1 (centres unmarked) | binding |  | competition with immobilised ligand | 10 µM |  | remaining binding | 77% |

Some of these lines once more:
| SMILES | observed | action | method | tested at | baseline | quantity | value |
| --- | --- | --- | --- | --- | --- | --- | --- |
| C=CC(=O)N1CCCC(n2c(=O)c3ncccc3n(Cc3ccc(Oc4ccccc4)cc3)c2=O)C1 (centres unmarked) | cell-free assay |  | competition with immobilised ligand | 1 µM |  | remaining binding | 100% |
| C=CC(=O)Nc1cccc(-c2cnc3[nH]cc(C(=O)NC(C)(C)C)c3n2)c1 | kinase activity |  |  | 0.1 µM |  | inhibition | 5% |
| Nc1ncc(-c2cc(-c3cnn(CC(F)(F)F)c3)ncc2F)nc1C(=O)NC1CNCC(F)C1 (centres unmarked) | enzyme activity |  |  | 1 µM | DMSO control | remaining activity | 94.4% |
